Results from different studies.
Each numbered part is a random draw from the data of one study; scales do not carry over between parts.

Series 1 — method: universal PBM; form: double-stranded DNA, one strand shown; medium: in vitro; concentration: 600 nM; reading: higher = stronger binding
Target: Sal-like protein 4, full length isoform A (SALL4, Homo sapiens, UniProt Q9UJQ4, residues 1-1053)
Sequence of UniProt Q9UJQ4 (whole entry, looked up): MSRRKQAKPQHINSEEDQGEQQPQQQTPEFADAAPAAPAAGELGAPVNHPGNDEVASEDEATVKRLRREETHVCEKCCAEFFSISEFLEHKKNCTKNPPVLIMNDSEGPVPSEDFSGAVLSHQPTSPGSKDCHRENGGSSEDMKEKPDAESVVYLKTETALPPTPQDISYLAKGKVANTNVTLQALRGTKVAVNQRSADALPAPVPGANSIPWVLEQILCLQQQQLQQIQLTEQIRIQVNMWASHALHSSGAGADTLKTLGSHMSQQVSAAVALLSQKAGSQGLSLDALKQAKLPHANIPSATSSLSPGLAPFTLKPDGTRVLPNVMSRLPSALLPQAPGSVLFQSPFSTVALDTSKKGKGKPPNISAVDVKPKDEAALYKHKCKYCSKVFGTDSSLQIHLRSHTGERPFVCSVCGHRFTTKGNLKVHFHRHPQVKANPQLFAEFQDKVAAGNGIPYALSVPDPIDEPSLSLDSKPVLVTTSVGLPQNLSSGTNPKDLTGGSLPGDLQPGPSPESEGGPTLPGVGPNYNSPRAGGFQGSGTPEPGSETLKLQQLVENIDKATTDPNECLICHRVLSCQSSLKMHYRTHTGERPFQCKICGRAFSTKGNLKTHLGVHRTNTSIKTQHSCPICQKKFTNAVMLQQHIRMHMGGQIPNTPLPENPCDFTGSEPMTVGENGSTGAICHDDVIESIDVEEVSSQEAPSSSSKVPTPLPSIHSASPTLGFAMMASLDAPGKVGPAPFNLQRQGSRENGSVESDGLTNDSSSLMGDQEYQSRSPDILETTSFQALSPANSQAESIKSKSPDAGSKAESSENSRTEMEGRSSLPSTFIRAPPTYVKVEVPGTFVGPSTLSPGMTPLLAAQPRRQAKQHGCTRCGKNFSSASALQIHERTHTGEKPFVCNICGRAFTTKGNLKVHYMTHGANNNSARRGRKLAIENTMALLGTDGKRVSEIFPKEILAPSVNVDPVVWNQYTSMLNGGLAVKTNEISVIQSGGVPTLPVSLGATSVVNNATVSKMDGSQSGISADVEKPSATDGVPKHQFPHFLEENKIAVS
Setting: 8-mer, flanks averaged, mean of replicates
Strand	E-score
CGGCAGGA	-0.424
ACGCAGCT	-0.202
AATTACTA	0.237
CATTTGCA	0.203

Series 2 — method: RNA Bind-n-Seq; form: RNA; medium: in vitro; concentration: 365 nM; reference: no-protein control; reading: higher = stronger binding
Target: RNA binding protein fox-1 homolog 2, RRM domain, GST-SBP tag (RBFOX2, Homo sapiens, UniProt O43251-10, residues 100-194)
Setting: natural RNA segment, single round, ends assumed
Residues (chain): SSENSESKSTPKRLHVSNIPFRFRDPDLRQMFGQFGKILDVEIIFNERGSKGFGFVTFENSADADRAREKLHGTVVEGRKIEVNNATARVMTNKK
Strand	RBNS enrichment (R)
GGGAGUUCUACAGUCCGACGAUCUCACUGAAGGCUGUGAGUUGCUUUCAAUGUGACAACACUAUGAUGUCAUUUGGAAGGAUUUGCCAGGACAGACUGAUUCUGAGUCCUGGGUGCCGUAUGUGUAUGCGGCAUGGAAUUCUCGGGUGCCAA	0.36
GGGAGUUCUACAGUCCGACGAUCCUGGGUUCAAAAAAAAAAAUUCCAGUGUCUGUAUACAGGAGCACUUGGUUUGGGGGUUCAGGCUCUAGGAUCGAUUCCAGAAGGAGCCUUGAGCCCCAACCCCGUGAAAAUGGAAUUCUCGGGUGCCAA	0.27
GGGAGUUCUACAGUCCGACGAUCUGUCAGGCCCUUGGACAAGAUCCAUAUUCUUAGAAAAUUAAUGAGUUCCAUCUCGUUAGGAAUUGGUUGAUGAGGUAUGGUACAUCUGCAUUUCUUUAACCAUAGCUGUAUGGAAUUCUCGGGUGCCAA	0.356
GGGAGUUCUACAGUCCGACGAUCCCCACUGCACCGCCAUUUCUUCCCAGAUUUAUGUGUAUAACUUAAACUGGAAAAAAAGAAAAAGAAAAAUAUGACUAUUAGAUUUCCAGGUAUAGAACUGUGUUCUUUGAUGGAAUUCUCGGGUGCCAA	0.459

Series 3 — method: protein binding microarray; form: double-stranded DNA, one strand shown; medium: in vitro; concentration: not given; reference: not given; reading: higher = stronger binding
Target: Histone acetyltransferase KAT6A, winged helix 1, GST fusion (KAT6A, Homo sapiens, UniProt Q92794, residues 1-85)
Setting: 8-mer, flanks averaged, mean of 2 arrays, mostly near background
Residues (chain): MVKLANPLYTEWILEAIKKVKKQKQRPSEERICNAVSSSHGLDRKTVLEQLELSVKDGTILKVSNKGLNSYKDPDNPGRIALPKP
Strand	E-score
AAGTGCGT	0.0564
CAGAACGA	-0.181
ACGTCTCC	0.0124
ATGGTGGA	-0.193
ATATTCGG	-0.106
CCATAAGA	-0.0486

Single results of other studies
Molecule	target	test	system	setting	scale	measurement	result
PhoQ, residues 284 288 289 292 302 303 AQGLTV	PhoP, residues 12 14 15 18 19 LHATL (Escherichia coli, UniProt P23836)	Sort-seq, item: YFP reporter	E. coli	PhoQ-PhoP variant library, together with: 10 µM Mg2+	reference: high Mg2+ state, higher = stronger signaling	fold induction	8.83

Some of these lines once more (series 3):
Strand	E-score
ACGTCTCC	0.0124
ATATTCGG	-0.106
ATGGTGGA	-0.193
